Measurements gathered from unrelated publications.
A part holds a random share of what one study measured.
UniProt Q15349, sequence (whole entry, looked up): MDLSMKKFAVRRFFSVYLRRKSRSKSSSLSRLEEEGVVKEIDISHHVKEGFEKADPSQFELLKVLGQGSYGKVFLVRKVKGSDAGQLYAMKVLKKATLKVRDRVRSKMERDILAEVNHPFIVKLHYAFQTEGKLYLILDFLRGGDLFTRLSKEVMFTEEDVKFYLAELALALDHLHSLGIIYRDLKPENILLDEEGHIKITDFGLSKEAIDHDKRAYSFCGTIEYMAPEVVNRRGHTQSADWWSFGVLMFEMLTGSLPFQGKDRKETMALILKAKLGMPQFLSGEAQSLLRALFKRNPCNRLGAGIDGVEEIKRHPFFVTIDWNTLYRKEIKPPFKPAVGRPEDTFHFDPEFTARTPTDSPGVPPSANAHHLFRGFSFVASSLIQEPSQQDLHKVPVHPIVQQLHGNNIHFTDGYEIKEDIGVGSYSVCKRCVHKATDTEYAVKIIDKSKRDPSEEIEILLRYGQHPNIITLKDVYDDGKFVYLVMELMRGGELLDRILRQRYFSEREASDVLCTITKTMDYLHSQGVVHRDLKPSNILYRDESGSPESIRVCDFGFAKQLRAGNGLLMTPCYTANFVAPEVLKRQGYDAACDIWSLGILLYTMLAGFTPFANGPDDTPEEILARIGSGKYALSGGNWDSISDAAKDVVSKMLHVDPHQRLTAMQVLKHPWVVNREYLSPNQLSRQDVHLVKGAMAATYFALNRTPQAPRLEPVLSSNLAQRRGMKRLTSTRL
UniProt P51451, sequence (whole entry, looked up): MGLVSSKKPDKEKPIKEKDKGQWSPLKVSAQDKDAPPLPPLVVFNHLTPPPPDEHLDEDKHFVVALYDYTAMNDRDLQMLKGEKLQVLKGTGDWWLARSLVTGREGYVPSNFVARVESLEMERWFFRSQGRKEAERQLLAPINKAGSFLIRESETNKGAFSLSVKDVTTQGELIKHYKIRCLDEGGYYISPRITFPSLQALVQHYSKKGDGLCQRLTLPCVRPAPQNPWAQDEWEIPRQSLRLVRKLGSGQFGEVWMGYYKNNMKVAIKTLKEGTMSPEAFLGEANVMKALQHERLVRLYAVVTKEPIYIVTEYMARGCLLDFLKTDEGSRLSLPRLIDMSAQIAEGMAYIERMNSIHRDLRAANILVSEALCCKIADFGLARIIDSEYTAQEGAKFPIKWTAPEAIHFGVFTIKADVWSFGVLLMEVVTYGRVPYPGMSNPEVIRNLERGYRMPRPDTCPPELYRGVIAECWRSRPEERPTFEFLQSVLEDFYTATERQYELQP
UniProt P21860, sequence (whole entry, looked up): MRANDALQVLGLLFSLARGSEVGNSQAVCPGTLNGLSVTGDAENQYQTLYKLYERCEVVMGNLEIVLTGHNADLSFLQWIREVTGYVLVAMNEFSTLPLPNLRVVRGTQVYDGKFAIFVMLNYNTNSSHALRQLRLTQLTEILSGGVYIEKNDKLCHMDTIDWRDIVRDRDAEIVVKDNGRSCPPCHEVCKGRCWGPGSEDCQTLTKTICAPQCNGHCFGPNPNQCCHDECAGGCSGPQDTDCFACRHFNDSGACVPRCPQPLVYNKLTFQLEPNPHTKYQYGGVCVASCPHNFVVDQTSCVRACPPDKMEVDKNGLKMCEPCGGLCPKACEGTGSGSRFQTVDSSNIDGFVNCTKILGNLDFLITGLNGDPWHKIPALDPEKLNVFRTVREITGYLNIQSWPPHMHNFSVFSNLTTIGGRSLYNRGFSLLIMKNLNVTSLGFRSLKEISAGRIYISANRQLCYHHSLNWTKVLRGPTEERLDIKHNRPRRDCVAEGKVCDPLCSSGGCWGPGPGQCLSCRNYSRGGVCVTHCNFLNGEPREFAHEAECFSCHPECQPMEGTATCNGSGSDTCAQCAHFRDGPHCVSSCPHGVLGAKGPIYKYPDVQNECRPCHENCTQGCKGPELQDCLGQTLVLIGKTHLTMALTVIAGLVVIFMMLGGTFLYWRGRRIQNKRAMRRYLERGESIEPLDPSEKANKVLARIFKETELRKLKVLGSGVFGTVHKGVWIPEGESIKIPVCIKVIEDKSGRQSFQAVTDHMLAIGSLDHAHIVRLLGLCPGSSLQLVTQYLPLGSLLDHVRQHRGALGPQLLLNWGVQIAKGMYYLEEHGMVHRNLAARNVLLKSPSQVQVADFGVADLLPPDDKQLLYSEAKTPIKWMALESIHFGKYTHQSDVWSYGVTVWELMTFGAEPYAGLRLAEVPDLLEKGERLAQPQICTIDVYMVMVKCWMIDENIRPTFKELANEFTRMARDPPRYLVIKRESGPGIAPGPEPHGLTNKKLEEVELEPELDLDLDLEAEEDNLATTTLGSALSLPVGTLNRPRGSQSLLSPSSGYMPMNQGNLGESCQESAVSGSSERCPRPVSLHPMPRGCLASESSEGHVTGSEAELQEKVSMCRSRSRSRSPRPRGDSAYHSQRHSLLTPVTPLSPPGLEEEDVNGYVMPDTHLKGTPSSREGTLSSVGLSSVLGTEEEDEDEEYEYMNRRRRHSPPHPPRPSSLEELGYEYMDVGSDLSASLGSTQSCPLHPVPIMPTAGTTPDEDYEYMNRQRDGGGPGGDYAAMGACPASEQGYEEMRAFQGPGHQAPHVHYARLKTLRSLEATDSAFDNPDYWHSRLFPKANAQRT
UniProt Q16644, sequence (whole entry, looked up): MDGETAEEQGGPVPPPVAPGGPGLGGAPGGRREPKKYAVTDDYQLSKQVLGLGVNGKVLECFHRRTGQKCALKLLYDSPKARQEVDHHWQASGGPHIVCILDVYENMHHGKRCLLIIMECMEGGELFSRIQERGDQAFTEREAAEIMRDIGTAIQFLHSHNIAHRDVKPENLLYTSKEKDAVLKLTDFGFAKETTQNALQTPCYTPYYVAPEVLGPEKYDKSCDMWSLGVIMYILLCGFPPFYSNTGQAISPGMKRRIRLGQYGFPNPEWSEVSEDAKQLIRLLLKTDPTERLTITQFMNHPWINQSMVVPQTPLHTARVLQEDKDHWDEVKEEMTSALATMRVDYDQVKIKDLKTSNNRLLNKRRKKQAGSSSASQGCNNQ
UniProt P51812, sequence (whole entry, looked up): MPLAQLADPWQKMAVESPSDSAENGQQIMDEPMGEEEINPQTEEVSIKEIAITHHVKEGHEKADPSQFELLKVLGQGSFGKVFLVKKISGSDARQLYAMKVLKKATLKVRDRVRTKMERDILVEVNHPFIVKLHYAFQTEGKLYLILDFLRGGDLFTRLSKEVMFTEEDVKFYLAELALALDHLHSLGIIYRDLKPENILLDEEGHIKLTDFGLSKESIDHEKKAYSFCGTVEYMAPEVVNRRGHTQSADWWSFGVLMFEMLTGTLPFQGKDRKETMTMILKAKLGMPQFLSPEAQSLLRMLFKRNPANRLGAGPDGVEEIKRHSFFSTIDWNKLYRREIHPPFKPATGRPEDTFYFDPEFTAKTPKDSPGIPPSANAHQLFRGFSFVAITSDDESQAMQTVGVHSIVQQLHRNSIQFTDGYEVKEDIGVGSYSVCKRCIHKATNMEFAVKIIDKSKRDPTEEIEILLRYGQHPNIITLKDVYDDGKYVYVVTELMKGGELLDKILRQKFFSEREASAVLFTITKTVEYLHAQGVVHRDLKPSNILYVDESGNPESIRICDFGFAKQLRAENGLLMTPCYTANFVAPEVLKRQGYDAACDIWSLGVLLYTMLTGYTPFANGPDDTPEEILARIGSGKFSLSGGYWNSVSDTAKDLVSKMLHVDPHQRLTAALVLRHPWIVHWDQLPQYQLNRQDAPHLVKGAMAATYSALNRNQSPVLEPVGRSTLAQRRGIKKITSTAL
UniProt Q08345, sequence (whole entry, looked up): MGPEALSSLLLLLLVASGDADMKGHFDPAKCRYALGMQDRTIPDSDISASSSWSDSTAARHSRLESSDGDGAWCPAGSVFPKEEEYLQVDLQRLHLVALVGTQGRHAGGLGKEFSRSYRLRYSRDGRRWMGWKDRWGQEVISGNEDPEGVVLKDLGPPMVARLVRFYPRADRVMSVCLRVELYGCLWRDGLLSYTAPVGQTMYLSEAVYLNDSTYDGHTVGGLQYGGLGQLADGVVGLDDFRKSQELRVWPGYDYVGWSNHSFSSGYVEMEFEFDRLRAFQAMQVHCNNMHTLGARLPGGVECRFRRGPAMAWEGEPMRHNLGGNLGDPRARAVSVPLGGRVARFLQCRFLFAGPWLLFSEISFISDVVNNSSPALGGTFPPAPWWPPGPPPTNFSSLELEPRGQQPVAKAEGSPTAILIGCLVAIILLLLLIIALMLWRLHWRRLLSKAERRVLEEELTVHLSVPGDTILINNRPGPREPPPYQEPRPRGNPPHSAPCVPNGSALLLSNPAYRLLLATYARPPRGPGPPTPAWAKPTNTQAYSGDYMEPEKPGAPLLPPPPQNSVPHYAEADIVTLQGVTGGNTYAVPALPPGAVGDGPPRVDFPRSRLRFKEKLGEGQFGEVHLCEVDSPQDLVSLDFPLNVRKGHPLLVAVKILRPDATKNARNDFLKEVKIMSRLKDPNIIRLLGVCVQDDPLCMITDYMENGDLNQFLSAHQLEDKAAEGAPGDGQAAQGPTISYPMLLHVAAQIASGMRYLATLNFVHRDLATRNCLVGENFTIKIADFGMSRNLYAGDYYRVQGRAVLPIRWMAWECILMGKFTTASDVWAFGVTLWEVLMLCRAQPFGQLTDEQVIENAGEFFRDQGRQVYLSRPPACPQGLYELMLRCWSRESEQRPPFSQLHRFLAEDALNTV
UniProt P06493, sequence (whole entry, looked up): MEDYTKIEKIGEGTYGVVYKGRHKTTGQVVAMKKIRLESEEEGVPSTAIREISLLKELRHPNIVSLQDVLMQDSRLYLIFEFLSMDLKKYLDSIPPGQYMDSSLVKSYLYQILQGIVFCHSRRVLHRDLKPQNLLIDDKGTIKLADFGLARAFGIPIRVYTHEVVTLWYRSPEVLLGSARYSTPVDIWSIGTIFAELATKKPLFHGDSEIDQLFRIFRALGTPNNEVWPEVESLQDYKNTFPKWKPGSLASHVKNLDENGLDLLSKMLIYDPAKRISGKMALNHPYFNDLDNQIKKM

Study 1
SMILES: CC(=O)c1ccc(N2CCOCC2)cc1O
Observed: enzyme activity
Mode: inhibitor
Concentration: 0.5 µM
Baseline: control
Quantity: remaining activity
target = DYRK3 (Homo sapiens, UniProt O43781); result = 93.9%
target = HIPK4 (Homo sapiens, UniProt Q8NE63); result = 101%
target = MAPKAPK3 (Homo sapiens, UniProt Q16644); result = 105%
target = Cyclin-dependent kinase 1, with cyclin B (CDK1, Homo sapiens, UniProt P06493); result = 86.8%
target = STK16 (Homo sapiens, UniProt O75716); result = 110%
target = TSSK2 (Homo sapiens, UniProt Q96PF2); result = 102%
target = EPHB4 (Homo sapiens, UniProt P54760); result = 97.6%
target = STK17A (Homo sapiens, UniProt Q9UEE5); result = 95.9%
target = MAP4K4 (Homo sapiens, UniProt O95819); result = 96.9%
target = Cyclin-dependent kinase 6, with cyclin D3 (CDK6, Homo sapiens, UniProt Q00534); result = 97.4%
target = BLK (Homo sapiens, UniProt P51451); result = 102%
target = RPS6KA6 (Homo sapiens, UniProt Q9UK32); result = 95.1%
target = RPS6KA5 (Homo sapiens, UniProt O75582); result = 105%
target = AXL (Homo sapiens, UniProt P30530); result = 96.3%
target = SRMS (Homo sapiens, UniProt Q9H3Y6); result = 94.7%

Study 2
Host: human
Sample: microsomes or S9
Concentration: 2 µM
Time: 0.5 h
Quantity: remaining compound
Structure (SMILES) = CC(C)n1ncc(N2CCOCC2)c(Cl)c1=O; result = 85.6%
Structure (SMILES) = OC1(Cc2nc(-c3cnccn3)no2)CCCCC1; result = 87.8%
Structure (SMILES) = CC1CCN(CCCNc2ncc(-c3cnccn3)c(-c3ccco3)n2)CC1; result = > 100%
Structure (SMILES) = CCOC(=O)c1cc2cc(NC(=N)N)ccc2s1; result = 3.82%

Study 3
Structure (SMILES): CN([C@@H]1CCc2c(CC(=O)O)c3ccccc3n2C1)S(=O)(=O)c1ccc(F)cc1
Observed: cell-free assay
Method: competition with immobilised ligand
Concentration: 1 µM
Quantity: remaining binding
target = PRKCD (Homo sapiens, UniProt Q05655); result = 100%
target = SGK3 (Homo sapiens, UniProt Q96BR1); result = 100%
target = YES1 (Homo sapiens, UniProt P07947); result = 100%
target = DDR1 (Homo sapiens, UniProt Q08345); result = 78%
target = AKT1 (Homo sapiens, UniProt P31749); result = 100%
target = ROCK1 (Homo sapiens, UniProt Q13464); result = 34%
target = Ribosomal protein S6 kinase alpha-2, C-terminal kinase domain (RPS6KA2, Homo sapiens, UniProt Q15349); result = 100%
target = ERBB3 (Homo sapiens, UniProt P21860); result = 100%
target = PIK3CA (Homo sapiens, UniProt P42336, H1047Y); result = 97%
target = CAMK2A (Homo sapiens, UniProt Q9UQM7); result = 91%
target = PIK3C2B (Homo sapiens, UniProt O00750); result = 94%
target = MAP3K11 (Homo sapiens, UniProt Q16584); result = 100%
target = EPHB1 (Homo sapiens, UniProt P54762); result = 100%
target = Ribosomal protein S6 kinase alpha-3, N-terminal kinase domain (RPS6KA3, Homo sapiens, UniProt P51812); result = 100%

Study 4
Cell line: A-375
Concentration: 100 µM
Time: 18 h
Quantity: viability
SMILES = Cc1cn(-c2cc(NC(=O)c3ccc(C)c(Nc4nccc(-c5cnccn5)n4)c3)cc(C(F)(F)F)c2)cn1; result = 23.3%
SMILES = CN(C)c1cc(NC(=O)CNC(C)(C)C)c(O)c2c1C[C@H]1C[C@H]3[C@H](N(C)C)C(O)=C(C(N)=O)C(=O)[C@@]3(O)C(O)=C1C2=O; result = 97.6%
SMILES = CCCCCCCC(=O)N[C@H](CN1CCCC1)[C@H](O)c1ccc2c(c1)OCCO2; result = 40.1%
SMILES = CN1C(C(=O)Nc2ccccn2)=C(O)c2ccccc2S1(=O)=O; result = 80.5%

Repeated from above (study 3):
target = AKT1 (Homo sapiens, UniProt P31749); result = 100%
target = ROCK1 (Homo sapiens, UniProt Q13464); result = 34%
